Published values of several laboratories.
Every numbered part comes from another study and shows a few of its results, in no order. Substitutions count along the parent as printed.

Set 1
Target: ATP-dependent RNA helicase DDX3X, helicase core (DDX3X, Homo sapiens, UniProt O00571, residues 132-607)
Sequence of UniProt O00571 (132-607, looked up): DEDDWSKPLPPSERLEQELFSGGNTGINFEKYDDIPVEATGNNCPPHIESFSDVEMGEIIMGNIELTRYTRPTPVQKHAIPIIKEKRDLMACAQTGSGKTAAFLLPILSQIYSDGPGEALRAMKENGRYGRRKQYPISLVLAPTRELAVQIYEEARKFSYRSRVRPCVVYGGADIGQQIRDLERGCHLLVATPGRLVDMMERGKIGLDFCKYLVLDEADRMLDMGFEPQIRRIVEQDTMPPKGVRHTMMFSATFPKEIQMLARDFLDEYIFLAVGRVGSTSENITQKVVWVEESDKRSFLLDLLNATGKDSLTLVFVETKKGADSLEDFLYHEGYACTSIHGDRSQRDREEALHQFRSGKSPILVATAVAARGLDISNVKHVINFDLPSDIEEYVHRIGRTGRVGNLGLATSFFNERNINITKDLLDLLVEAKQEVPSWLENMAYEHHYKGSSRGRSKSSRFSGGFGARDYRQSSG
Method: RNA Bind-n-Seq
Molecule type: RNA
Medium: in vitro
Tested at: 90 pmol
Notes: 4-mer, random 30-nt RNA, single round
Added: 3 µM DMDA-PatA, 2 mM ADP, 2 mM phosphate
Baseline: input library
Reading: higher = stronger binding
Sequence	4-mer enrichment
UGAG	1.22 fold
AUGC	0.89 fold
UCCC	1.1 fold
CCAA	1.05 fold
AGAC	0.927 fold
CAUU	0.925 fold
UAUU	0.993 fold
ACGU	0.926 fold
CGGC	0.866 fold
UAUA	1.06 fold
AGAA	1.18 fold
UUUG	1.02 fold
UUCU	0.84 fold
GCUG	0.813 fold
UAAC	0.899 fold
UGGA	1 fold
ACAU	0.933 fold
GUUC	0.906 fold
CUUU	0.826 fold
UCUG	0.821 fold
CUUA	0.825 fold
GGAA	1.18 fold

Set 2
Target: Max dimerization protein 1, bHLH-zipper, MAX partner unstated (MXD1, Homo sapiens, UniProt Q05195, residues 56-136)
Method: protein-binding microarray
Molecule type: double-stranded DNA, one strand shown
Medium: in vitro
Tested at: not given
Notes: k-mer, scored over probes, only values ≥0.25
Reading: higher = stronger binding
Construct (chain): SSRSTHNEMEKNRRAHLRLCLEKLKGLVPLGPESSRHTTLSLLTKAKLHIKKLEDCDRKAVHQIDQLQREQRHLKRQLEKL
Sequence	E-score
CGTGTTGC	0.297
CCCCACGA	0.301
AACAGGTG	0.354
CGCCGCGC	0.3
AAGCGCAT	0.262
CCATGCGC	0.424
AGAGCATG	0.382
CGTGGCTC	0.294
AAACACGT	0.371
GGGCACGA	0.271
CCGCCCCA	0.361
CACCCATG	0.312
CGGCATGA	0.26
CTCCATGC	0.391
CGTGGTGC	0.32
AACGTGCG	0.419
CACGTGTC	0.479
GGAGGGGA	0.295
CGTGGTTA	0.285

Set 3
Target: RING finger protein unkempt homolog, zinc fingers 1-6, GST-SBP tag (UNK, Homo sapiens, UniProt Q9C0B0, residues 30-357)
Method: RNA Bind-n-Seq
Molecule type: RNA
Medium: in vitro
Tested at: not given
Notes: RNA with constant flanks, human-mouse chimeric sites, ends assumed
Baseline: input RNA pool
Reading: higher = stronger binding
Constant ends, left off below: GGGAGUUCUACAGUCCGACGAUC … CAACAGAGGAUUGAGCAUCA
Residues (chain): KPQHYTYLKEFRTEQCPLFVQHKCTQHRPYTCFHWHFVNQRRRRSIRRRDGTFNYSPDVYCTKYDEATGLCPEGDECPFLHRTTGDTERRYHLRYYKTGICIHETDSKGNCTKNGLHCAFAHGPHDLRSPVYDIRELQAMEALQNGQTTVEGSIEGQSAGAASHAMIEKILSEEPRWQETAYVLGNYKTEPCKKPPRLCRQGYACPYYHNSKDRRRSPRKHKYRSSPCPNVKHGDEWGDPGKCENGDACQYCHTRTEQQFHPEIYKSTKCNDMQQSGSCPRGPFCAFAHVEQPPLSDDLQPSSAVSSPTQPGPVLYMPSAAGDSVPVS
Sequence	bound/input enrichment
GAGUCGAGCAAACUUGAAACUACAGAAUUUACAAAAACCUCAGUGUUCACUUGCUUGGCGAUAGCAUUGGGGUUUUAUAGGUUCUGGAAGGAGAACUGACGAUGAUGCUGCCGCUGCUGC	0.188 ratio
UUCAAAGAAAAGGGCAGCUGUGUCAUUUCAUAAGUAACUCUGGGGGAGGGAAAUUCUGUUCUUUUGUUUAAUUUUCCCCCAGAUAAAGCCAAAGUGUGUGUUGAAGAAGGAAGAAUGAAU	0.178 ratio
UUUGUUUGUAACUUAUCUCUGUAAAAGGUUUCUCCCUUACUGUCAAAAAAUAUGCAUGUAUAGUAAUUAGGACUUCAUUCCUCCAUGUUUUCUUCCCUUAUCUUACUGUCAUUGUCCUUA	1.01 ratio
UAAGUCCUGUGCCAGCAAUUUAUCCCAAAAGUUUUAAAUUCUGGACCAAUAGUGUUUGUUUCCUGAUUAUUGUAUCCAAUACUUUGCCUAGUAUGUAACUCACUCUUACUGAUAAUAAAA	4.06 ratio
AAAUCGUGUGUGUCCAAUAUUGAAAGUGCUUUAUCUACACUCCAAUAUGUAAGCAGUAUAGUAGUUUCUUUAGAGAAUAGGUCAGCCAUUGUAAAGUAUAAUGCAAGCUUAGUCACUCCA	13 ratio
UCUUAACUUAUUCAUUUAACUUAUUUUUAUAGCUAGAGCAAUAUUGUUAGUCUUAGACAAUAGCUCACAUUUUUUGAGAAGCAUGCCCUCCCUGUCCAUUUGUCUUAUAACAUGACCCAG	114 ratio
UGUGAACUGUCUCUUGAGAUCUAAAAAAAACAUGAUUUUUCCUGGCACAUAUUUCAAAGCAAAGACUUUGUUGCCUGCUGCUUAUUGUCUAAUUUACAGGGAUAUUUAAUUUUGUCAGGU	0.135 ratio
UUAAUCCCCUUUACUGCUCCCCCACUUCUCAUGGUAAUAACAAAGUCUUAUAUCCCCGUCCUAGCUUUCACUCAGAUGGCUUAUGGAGCCAGUUUCCUAGCUUUCUUGGGUGGGAUCAGA	0.326 ratio
AGGAGGAGGUUAAAGGGUGAGAGUGGGGUGGAAGACUGUGUCAUGGCUCUGGAGACACUGUUCAGUGUCCUGCUUUCUCUUUGCAGACUGAUGGCCCCUUACACGCCUUUUCUCACUGAG	0.0692 ratio
GGAAGUACAAUGAUGGAGAUUGAUGGUGACAAAGGCAAACAAGGCGGUCCCACCUACUACAUAGACACCAAUGCCCUCCGCGUGCCCAGGGAGAACAUGGAGGCCAUCUCACCACUCAAG	0.234 ratio
GACAGUGAAGGCCCACUGUGUGAAUUGCUUUUUUUCUUCCUGACUGCAAUCUUCCAGGCGAUGGCUGAAGAAGAAGAGGAAGUAGCCAAAGAGCAACUAACUGAUGCUGACACCAAAGAU	0.0627 ratio

Set 4
Target: CCNA2, cyclin fold, Cln2 fusion (human)
Method: yeast growth competition, sequencing
Medium: yeast
Notes: strong parent motif
Baseline: not given
Reading: higher = stronger binding
Parent: CDC6 docking peptide (human); TLKGRRLVFDNQL; partner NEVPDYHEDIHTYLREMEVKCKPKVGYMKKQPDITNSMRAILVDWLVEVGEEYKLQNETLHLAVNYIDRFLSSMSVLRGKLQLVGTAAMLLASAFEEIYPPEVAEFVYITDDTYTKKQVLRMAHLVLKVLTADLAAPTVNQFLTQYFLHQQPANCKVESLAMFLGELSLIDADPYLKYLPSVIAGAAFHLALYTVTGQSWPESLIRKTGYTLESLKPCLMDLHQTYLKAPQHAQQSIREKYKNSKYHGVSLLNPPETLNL
Change	normalised enrichment score
G4D	0.69
R6G	-0.00303
R5A L7A	-0.0845
G4M	2.56
L13Y	3.58
F9L	1.24
N11R	2.34
V8G	1.23
N11T	3.19
D10C	2.4
K3P	1.61
G4Y	0.532
R6D	-0.515
T1W	2.93
L7E	0.637
G4C	3.51
D10H	1.75
L2N	1.7

Set 5
Target: RNA binding protein fox-1 homolog 2, RRM domain, GST-SBP tag (RBFOX2, Homo sapiens, UniProt O43251-10, residues 100-194)
Method: RNA Bind-n-Seq
Molecule type: RNA
Medium: in vitro
Tested at: 365 nM
Notes: natural RNA segment, single round, ends assumed
Baseline: no-protein control
Reading: higher = stronger binding
Constant ends, left off below: GGGAGUUCUACAGUCCGACGAUC … UGGAAUUCUCGGGUGCCAA
Sequence	RBNS enrichment (R)
AUUGGAUUAAAUGGUUUACAGGUUAUCUGAAUCUACAGAUUUAGUAUGUCUAUUAUCUGGACAUGAUUUUGCUAUGCAGUUGUGAUAAUAAAAAUUCUAAUUCCUCAGGU	0.723
UGAAUUUGGGCUCAAUCCAUAAUUUUUGACAUUUUCACAAAAAUAUGGUUUGCACUUUUUAAUCUAAAUUCAUCCCUUCUAAGUGAGGUUUGCUCAUACAGCAUUUGGAU	0.419
CACCCAAAGGCUCCAGCCAGCUGCACUCCUGGCAGUUUCCUGCACUUGGGCCUGAUGCUUCUCUAACUGGCAGAAGCAGGCUCUACCUGGACCUCCAGCUGGGAGGUCAU	0.508
UGCACCGGUGAAACUCAGGCCACACUCAAGGGCUGACUGUCCAGGCGCUCCCUUCAGCCGCCUCGUCGUCAGCGUUCUUAGUCAUGCAUUAUUCGUGUUAGCUGAAAUGC	0.384
UCCCAGCGCUGAGAGCCUCCCCUGGCUGUCAGCAGCACUGUGUCCAGGCUCUUGUCUGAACACCGCAGCCCCUCCUUCGCUCCUUCCAGAGCUCAGCAUGUCACGGCAAG	1.72
UUCCAGGAAAGAGGCCAUCUCUUGGGGGUUUCAGCCAUCUUACCCAGUGUCUGGACUGCUAUAUUGGGUUGGGGGCUGGUUCUGGAACUCAGUCUGCGCCUCUAUAGGUU	0.389
UCUCUGAAGAACCCGGUUUCCGGUGUUGAGUGAUAGACUGGUUUGAGCGAGUACUGUUUUGUGGUGACAUCUUAGGUGUUUCCUUUCUCCCAGGCUGCUGCUCUGUGGUA	0.46
AUUAGGUAACUAAAAAGCGCAAAUUGUUGGCAGGUUUUGCUGCACAUUGUUCUAUGUCUUUGUUGGCUGGUGUAUUUUAUAAACUAAAGCUGCCUAUGUUUCUUUUUAAA	0.508
ACUUUACCAGCCCCUGAGAGGACCAGGAGGAGCAUCCUUGACCUUCAUUUAACUUGGCUCACUUCUCUUCAGACUUGGGUAGAAGUGCAGAGCCACAGAAUUGCUUUCCU	0.431
GUAGCAUAUUGUGUUGGAUUGCAUUACUGGCAGAGAAAGGACAAGGUGCCAUUCAAGUCCUAGGGUGGGCUUCCAGCUGCCUUAAUAGAAGUACUCAAGUCUUUUGGGUA	0.735
AAGAACAGAGAUGACAAAAGACCACUUGAAGAGAGGUUCCUAAUACUAGACAGAUGGAGAGUGGCUUGGCUGUUUCCCCCUGCAUAUUGGGGUUGAAAACUUAAAUGUGU	0.686
GUCUGAGAAAUUCCUAAGAUCAAUGAAAGAGUGAUAAACUAUUUGUCUCUGAUACAUAAAAUUAUUUUAAGCAUUUUCUCAAUCAUUAAAUGUUACUGCCAGUCAUAAGU	1.6

Set 6
Target: Histone acetyltransferase KAT6A, both winged helices, GST fusion (KAT6A, Homo sapiens, UniProt Q92794, residues 1-181)
Method: protein binding microarray
Molecule type: double-stranded DNA, one strand shown
Medium: in vitro
Tested at: not given
Notes: 8-mer, flanks averaged, mean of 2 arrays, mostly near background
Baseline: not given
Reading: higher = stronger binding
Construct (chain): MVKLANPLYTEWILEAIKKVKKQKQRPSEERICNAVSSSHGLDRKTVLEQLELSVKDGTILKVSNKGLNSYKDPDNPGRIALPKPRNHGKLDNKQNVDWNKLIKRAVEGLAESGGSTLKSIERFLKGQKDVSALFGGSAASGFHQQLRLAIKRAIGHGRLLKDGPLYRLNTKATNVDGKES
Sequence	E-score
GCCAGGGA	-0.104
CACGTGGA	-0.0572
CGCCCGCC	0.358
GATCGATC	0.157
CGTAGGGA	0.0158
GTGGTCTA	-0.129
GTTGGGTA	-0.167
AGACTCGG	-0.0397
GAATACAA	0.003
CACAACCA	0.0402
AAAACCTC	0.0112
GGAGCTCC	-0.00517
TCCTAAAA	-0.144
CCGCTCCC	0.244
TACCGAAA	-0.00992
ACGCTGTA	0.174
CGTGGGTC	-0.0696
CACTGGTC	-0.031
ACCGGTGG	-0.00208
AGTCTGAT	-0.144
CATTTGCC	-0.0662
CTGCCCTC	-0.162
ATTACCGC	0.291
AAACCAGT	-0.0425
ACCTAATA	-0.0613

Some of these lines once more (set 6):
Sequence	E-score
AAACCAGT	-0.0425
CGCCCGCC	0.358
AGTCTGAT	-0.144
TACCGAAA	-0.00992
CTGCCCTC	-0.162
GTTGGGTA	-0.167
GATCGATC	0.157
